Experimental data from different studies.
Each numbered part is a random draw from the data of one study; scales do not carry over between parts. Changes are numbered by the printed parent chain.
Chain of UniProt Q94JM3 (whole entry, looked up): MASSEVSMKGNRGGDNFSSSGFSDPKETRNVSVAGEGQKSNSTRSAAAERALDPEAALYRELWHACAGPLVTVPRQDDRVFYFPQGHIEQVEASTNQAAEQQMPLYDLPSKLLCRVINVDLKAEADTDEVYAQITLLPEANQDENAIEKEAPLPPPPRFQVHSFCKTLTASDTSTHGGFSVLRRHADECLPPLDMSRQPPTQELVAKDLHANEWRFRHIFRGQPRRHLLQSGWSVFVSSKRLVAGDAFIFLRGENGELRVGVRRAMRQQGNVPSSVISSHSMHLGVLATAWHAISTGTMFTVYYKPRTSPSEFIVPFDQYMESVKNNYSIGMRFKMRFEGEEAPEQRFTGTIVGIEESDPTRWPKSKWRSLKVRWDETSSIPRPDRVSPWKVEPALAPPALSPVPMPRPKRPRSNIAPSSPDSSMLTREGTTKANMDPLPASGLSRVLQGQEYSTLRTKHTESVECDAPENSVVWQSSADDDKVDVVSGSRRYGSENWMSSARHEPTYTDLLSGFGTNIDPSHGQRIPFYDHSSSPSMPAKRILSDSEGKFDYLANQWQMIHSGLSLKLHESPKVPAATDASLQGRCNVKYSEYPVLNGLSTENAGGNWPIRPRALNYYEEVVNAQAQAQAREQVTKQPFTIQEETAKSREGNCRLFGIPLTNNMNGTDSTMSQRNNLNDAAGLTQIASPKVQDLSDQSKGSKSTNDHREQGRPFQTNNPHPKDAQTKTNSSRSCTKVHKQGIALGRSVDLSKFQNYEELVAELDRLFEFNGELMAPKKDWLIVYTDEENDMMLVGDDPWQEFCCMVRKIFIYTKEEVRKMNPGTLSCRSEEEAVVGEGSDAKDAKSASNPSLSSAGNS
Chain of UniProt Q9ZTX9 (whole entry, looked up): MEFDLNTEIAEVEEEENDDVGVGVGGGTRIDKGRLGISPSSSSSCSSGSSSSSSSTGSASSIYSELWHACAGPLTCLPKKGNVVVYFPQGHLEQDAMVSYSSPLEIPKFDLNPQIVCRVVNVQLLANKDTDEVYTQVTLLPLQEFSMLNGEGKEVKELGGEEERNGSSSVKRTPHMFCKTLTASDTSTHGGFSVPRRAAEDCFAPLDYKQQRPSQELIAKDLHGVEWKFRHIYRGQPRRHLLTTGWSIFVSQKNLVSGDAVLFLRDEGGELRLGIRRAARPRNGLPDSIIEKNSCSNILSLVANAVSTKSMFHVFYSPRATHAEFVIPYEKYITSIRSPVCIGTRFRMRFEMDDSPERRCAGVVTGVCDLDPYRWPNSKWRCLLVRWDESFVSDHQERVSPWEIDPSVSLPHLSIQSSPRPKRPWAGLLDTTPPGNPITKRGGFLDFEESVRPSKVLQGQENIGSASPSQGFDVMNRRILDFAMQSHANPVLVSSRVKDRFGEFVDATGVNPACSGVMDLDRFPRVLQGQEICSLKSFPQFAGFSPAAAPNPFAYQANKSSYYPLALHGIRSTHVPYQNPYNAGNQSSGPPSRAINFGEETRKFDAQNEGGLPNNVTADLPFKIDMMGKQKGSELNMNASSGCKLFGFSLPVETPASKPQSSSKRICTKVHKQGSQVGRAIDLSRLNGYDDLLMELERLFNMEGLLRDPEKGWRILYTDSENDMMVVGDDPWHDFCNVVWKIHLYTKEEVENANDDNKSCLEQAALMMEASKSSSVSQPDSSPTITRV
Chain of UniProt Q9XFM0 (whole entry, looked up): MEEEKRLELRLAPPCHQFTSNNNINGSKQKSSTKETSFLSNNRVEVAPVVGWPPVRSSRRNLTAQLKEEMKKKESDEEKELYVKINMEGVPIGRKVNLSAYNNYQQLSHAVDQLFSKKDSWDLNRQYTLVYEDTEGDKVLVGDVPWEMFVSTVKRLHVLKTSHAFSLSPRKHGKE
Chain of UniProt Q9FGV1 (whole entry, looked up): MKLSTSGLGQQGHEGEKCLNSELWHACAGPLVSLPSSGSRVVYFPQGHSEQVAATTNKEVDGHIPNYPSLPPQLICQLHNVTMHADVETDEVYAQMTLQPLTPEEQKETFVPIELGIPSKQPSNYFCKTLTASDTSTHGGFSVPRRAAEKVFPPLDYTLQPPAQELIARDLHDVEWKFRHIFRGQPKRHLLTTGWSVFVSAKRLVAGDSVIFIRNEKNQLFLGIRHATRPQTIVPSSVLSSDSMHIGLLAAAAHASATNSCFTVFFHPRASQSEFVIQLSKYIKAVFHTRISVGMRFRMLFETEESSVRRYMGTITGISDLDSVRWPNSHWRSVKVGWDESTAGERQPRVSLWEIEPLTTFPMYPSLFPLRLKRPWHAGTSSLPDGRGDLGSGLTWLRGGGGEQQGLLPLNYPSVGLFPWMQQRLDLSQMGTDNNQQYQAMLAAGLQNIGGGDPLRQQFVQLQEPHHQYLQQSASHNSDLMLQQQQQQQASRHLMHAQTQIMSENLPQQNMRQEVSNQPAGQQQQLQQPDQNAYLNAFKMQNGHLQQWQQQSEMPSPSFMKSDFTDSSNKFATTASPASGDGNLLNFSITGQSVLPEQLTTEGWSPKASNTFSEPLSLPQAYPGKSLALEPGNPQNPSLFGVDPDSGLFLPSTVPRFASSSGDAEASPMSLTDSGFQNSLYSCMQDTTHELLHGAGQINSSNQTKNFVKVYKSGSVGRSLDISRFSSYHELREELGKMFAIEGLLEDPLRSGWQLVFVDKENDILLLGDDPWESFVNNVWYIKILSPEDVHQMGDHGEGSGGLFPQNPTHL
Chain of UniProt Q9M1R4 (whole entry, looked up): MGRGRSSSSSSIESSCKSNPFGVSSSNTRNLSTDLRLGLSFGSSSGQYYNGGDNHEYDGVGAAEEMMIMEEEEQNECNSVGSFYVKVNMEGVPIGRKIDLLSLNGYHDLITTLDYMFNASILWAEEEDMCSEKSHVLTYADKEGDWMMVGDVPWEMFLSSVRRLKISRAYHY
Chain of UniProt Q9XED8 (whole entry, looked up): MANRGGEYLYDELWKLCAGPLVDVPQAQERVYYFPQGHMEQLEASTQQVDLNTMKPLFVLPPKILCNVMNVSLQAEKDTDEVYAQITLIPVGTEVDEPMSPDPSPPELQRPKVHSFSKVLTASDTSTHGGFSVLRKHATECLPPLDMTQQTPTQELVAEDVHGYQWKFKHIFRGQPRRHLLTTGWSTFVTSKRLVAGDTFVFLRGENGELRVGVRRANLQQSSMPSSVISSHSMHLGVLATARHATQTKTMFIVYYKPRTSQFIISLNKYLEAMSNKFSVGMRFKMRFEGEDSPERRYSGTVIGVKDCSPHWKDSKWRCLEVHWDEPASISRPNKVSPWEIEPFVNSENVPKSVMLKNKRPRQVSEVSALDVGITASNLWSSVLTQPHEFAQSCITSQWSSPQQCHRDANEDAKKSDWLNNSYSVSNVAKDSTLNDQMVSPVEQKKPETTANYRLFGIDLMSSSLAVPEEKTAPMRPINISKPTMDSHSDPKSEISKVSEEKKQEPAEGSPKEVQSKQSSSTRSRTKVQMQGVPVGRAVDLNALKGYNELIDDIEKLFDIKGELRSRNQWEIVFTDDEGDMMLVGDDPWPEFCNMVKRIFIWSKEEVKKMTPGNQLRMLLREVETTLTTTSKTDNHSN
Chain of UniProt Q38826 (whole entry, looked up): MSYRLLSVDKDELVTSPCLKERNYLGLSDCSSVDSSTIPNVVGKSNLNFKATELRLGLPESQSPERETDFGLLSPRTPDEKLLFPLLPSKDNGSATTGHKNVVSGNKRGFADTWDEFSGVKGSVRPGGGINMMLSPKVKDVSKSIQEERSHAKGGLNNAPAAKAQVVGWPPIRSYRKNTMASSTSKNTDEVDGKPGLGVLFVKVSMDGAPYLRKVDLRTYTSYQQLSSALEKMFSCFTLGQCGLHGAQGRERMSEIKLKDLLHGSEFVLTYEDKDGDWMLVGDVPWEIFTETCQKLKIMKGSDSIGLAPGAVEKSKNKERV

Set 1
Target: BATF, bZIP domain (human)
Method: DHFR protein complementation
Sample: yeast
Notes: single substitutions, most at no-binding floor
Baseline: wild-type JUN-FOS pair
Direction: higher = stronger binding
Parent: JUN, bZIP domain (human); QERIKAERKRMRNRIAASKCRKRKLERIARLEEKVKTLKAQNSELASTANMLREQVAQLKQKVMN; partner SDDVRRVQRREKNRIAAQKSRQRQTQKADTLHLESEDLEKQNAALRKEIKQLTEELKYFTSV
Variant	binding fitness [natural log]
A40G	-0.112
A29P	-0.199
R30W	0.00516
L52Y	-0.492
A46E	0.0343
M51L	0.0407
Q55C	-0.169
L31Q	-0.152
A49G	-0.73
A29H	-0.0171
K34F	-0.184
S47V	0.1
T37C	0.0149
R53D	-1.09
A57G	-0.0347
R53Q	-0.337
K34A	-0.0668

Set 2
Molecule: B1 (IAA3)
Method: two-hybrid
Direction: higher = firmer interaction
B1: IAA3 (Arabidopsis thaliana, UniProt Q38822); chain MDEFVNLKETELRLGLPGTDNVCEAKERVSCCNNNNKRVLSTDTEKEIESSSRKTETSPPRKAQIVGWPPVRSYRKNNIQSKKNESEHEGQGIYVKVSMDGAPYLRKIDLSCYKGYSELLKALEVMFKFSVGEYFERDGYKGSDFVPTYEDKDGDWMLIGDVPWEMFICTCKRLRIMKGSEAKGLGCGV
partner	conditions	scale	positive tests
ARF4 660-788 (Arabidopsis thaliana, UniProt Q9ZTX9)		baseline: out of 4 tests	0
ARF9 519-638 (Arabidopsis thaliana, UniProt Q9XED8)	weak activation fusion	baseline: out of 2 tests	2
IAA30 (Arabidopsis thaliana, UniProt Q9M1R4)	weak activation fusion	baseline: out of 4 tests	2
IAA4 (Arabidopsis thaliana, UniProt P33077)		baseline: out of 4 tests	4
ARF8 699-811 (Arabidopsis thaliana, UniProt Q9FGV1)		baseline: out of 4 tests	3
ARF2 727-859 (Arabidopsis thaliana, UniProt Q94JM3)		baseline: out of 4 tests	0
IAA28 (Arabidopsis thaliana, UniProt Q9XFM0)		baseline: out of 2 tests	2
IAA8 (Arabidopsis thaliana, UniProt Q38826)		baseline: out of 4 tests	4

Set 3
Target: CCNF, cyclin fold, Cln2 fusion (human)
Method: yeast growth competition, sequencing
Sample: yeast
Notes: strong parent motif
Baseline: not given
Direction: higher = stronger binding
Parent: RB1 docking peptide (human); PKPLKKLRFDIEG
Variant	normalised enrichment score
D10Y	2.4
P1S	0.938
K2V	1.35
K2W	1.92
K2T	0.591
E12S	0.836
D10I	0.672
K5L	0.591
D10M	2.33
P3K	0.897
L4T	0.932
L7I	1.13
K6V	1.37
L7A	0.623
R8E	2.35
D10P	1.16
P3R	1.63
L7T	1.02
P3Y	1.14
E12C	2.39

Set 4
Target: ABI1, truncated, D143A, DHFR fusion (Arabidopsis thaliana)
Method: DHFR PCA, deep sequencing
Sample: yeast
Notes: methotrexate growth selection, single substitutions
With: (+)-ABA 710 µM
Baseline: wild-type fitted maximum
Direction: higher = stronger binding
Parent: PYL1, truncated, DHFR fusion (Arabidopsis thaliana); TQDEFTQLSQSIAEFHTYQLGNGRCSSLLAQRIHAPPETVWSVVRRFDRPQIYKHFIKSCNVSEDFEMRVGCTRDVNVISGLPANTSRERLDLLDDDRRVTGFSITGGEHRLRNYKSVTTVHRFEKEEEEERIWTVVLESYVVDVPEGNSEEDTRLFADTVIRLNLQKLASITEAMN; partner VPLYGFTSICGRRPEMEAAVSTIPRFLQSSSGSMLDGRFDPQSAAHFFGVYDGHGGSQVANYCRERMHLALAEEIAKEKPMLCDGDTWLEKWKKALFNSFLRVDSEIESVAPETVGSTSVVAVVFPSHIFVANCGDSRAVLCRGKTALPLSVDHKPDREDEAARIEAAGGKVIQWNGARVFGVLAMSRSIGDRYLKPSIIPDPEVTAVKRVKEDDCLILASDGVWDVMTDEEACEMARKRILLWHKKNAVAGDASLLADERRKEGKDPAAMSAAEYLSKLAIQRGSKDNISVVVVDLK
Variant	relative binding score [%]
A84D	31
V137T	60.5
E151S	101
N177F	100
V76K	-5.38
C25Q	77.9
S27A	96
F103I	80
C60P	22.6
T6C	108
G108N	47.5
V44A	90.4
E131C	108
E128I	104
M68C	98.6
E64P	97.9
V161T	66.3

Set 5
Target: CRIPT, C-terminal peptide
Method: DHFR complementation, deep sequencing
Sample: yeast
Notes: single substitutions, model-inferred values
Baseline: wild type
Direction: higher = weaker binding
Parent: ERBIN, PDZ domain 1 (human); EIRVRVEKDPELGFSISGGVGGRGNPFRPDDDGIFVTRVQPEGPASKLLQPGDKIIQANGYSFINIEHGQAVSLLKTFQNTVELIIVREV; partner TKNYKQTSV
Variant	binding free energy change [kcal/mol]
R38S	-0.0334
F14G	0.536
E1H	0.108
G22V	0.0897
G24T	0.989
L84Y	2.04
Y61Q	-0.0453
R5I	0.145
I85L	-0.0745
R88C	0.415
V39S	0.603
Q70N	0.04
T77V	0.308

Set 6
Target: RING finger protein unkempt homolog, zinc fingers 1-6, GST-SBP tag (UNK, Homo sapiens, UniProt Q9C0B0, residues 30-357)
Method: RNA Bind-n-Seq
Form: RNA
Sample: in vitro
Concentration: not given
Notes: RNA with constant flanks, ends assumed
Baseline: input RNA pool
Direction: higher = stronger binding
Target sequence (chain): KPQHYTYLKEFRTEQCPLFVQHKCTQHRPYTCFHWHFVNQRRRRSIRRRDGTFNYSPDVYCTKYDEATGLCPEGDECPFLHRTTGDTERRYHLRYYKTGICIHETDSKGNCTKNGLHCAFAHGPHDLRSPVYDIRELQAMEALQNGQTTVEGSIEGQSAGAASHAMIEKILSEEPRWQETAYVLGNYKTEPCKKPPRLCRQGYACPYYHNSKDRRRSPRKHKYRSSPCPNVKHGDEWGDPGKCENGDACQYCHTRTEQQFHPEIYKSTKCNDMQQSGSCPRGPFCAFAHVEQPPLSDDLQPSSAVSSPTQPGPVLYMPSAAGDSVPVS
Sequence	bound/input enrichment
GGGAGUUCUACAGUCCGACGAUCACUGCUCCAUCGAUCCCUUCACAUUUGUCUCCUGGUUUACGAGAUGUGGCUCUUCGUUGUUCCGAACUUCAACCUCAGGACAGACCUCCAUCAAGAGAGCUACUGAAGCAUCCAGUCUUUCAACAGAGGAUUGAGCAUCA	0.147 ratio
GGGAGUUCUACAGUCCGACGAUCCAGCCUUAAGCACAAUUAAUUAAGAGUGAAACGUAAUUGUACAAGCAGUUGGUCACCCACCACCGGGCAUGAUCAACACCGCAACCUUUCCUUUUUCCCCCAGUGAUUCUGAAAAACCCCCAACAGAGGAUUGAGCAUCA	0.208 ratio
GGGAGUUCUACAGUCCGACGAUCAGAUGCAGAGAAAGGGACUCAGAUGAUACUUGUAGGCAGCAUAAUACGUCAAAAAGUCCAUUCCGGGAAAUGGAACCUUUGUUGUCACCACACCAUGAUAAACUCAUGUCUUUGCCAGUUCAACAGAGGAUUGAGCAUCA	0.204 ratio
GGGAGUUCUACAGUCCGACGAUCGUUUUGCCAAAACCUCGGAUGCGUGGCCUUCUGGCCAGGCGUCUGCGAAAUCAUAUGGCUGCCGCAUUCGUGCUAUCCCUGGGGGUUGCAGCUUUGUAUAAGUUUCGUGUGGCUGAUCAACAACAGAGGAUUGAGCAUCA	0.099 ratio
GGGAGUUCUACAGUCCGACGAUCUUUUAUGGCAUGUAAUGGUGUUUGGUAAUAUUUUAAUGUAGAAUUUGAUUAUUUCAGCAACCGUAAUUUUGAGAUAUUCUUUGAAUGAAAAGUGUCUUCGUUUCUAUGAUACAGGUCAUUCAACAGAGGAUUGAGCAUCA	0.471 ratio
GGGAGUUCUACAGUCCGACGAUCGAACAUGUCGACAAGCUGAAAAUCCCCCCUGAAGAGAUGAAGGAAAUGGAGCAGAAGUUGAUCCGAGACUUCCAAGAGUACGUGGAGCCAGGAGAAGACUUCCCAGCCUCCCCUCAGCGACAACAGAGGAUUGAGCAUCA	0.086 ratio
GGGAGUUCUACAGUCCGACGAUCCUUACCAAGCACUUGCUGAAGACAGUGUGUACCGAUAUCACUAACCUCAUGUUCAACUUCCCCGCCUCAGAUUUCCUCAUGGCAGUGGAGGAGCCUGCAGCCAUUACAAGUGAUAUAAGACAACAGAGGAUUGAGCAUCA	0.24 ratio
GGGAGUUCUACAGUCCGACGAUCUGGCAUAAACUCUCUGCUGACAACAUGGACCCAGACUUUGUGGAGAGACGACGCGUGGGCUCCGAAAACUUCCUCUUGAGGGUUGCUUCACAUCCUGUCCUUUGUAGAGACAAAAUCUUCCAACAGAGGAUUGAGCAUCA	0.204 ratio
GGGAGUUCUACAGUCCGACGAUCAAUAAAAUGUACAAAUUUGUUGUGUUUUUUUAUGUUCUAAUAAUACUGAGACUUCCCGGUCUCCGGUUAAUUUUUAGGAAGAUCUUGCAUGCCAUCAGGAGUAAAUUUUAUUGUGGUUCUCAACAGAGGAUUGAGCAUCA	0.755 ratio
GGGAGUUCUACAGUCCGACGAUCAACUUCUCCGACUACAUCCGUGGAGGCAUCGUCAGUCAGGUCAAAGUACCUAAGAAGAUCCGCUUUAAAUCCUUGGUGGCCUCACUGGCAGAACCUGACUUUGUGGUGACGGACUUCGCCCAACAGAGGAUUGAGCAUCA	0.116 ratio
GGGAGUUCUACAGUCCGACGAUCCUGCAUUUUGCAUGCAUAGUUUAAGAUUACUGGGUGCAGAGAGGGUUCAUUUCUCAAAAUUCCGUCACUGAUAAAUCAUUGUAACGGAUCAUUAUAAAAAUCAUAAACAUAUUUUGUUUGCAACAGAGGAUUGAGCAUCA	0.29 ratio

Set 7
Target: Histone acetyltransferase KAT6A, winged helix 2, GST fusion (KAT6A, Homo sapiens, UniProt Q92794, residues 85-181)
Method: protein binding microarray
Form: double-stranded DNA, one strand shown
Sample: in vitro
Concentration: not given
Notes: 8-mer, flanks averaged, mean of 2 arrays, mostly near background
Baseline: not given
Direction: higher = stronger binding
Residues (chain): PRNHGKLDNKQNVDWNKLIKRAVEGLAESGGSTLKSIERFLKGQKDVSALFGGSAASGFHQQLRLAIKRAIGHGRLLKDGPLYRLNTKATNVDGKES
Sequence	E-score
ATGCGGCG	0.215
AAGGAACT	-0.123
GGGCCCAC	0.16
GACCGGCC	0.136
AACGAGAC	-0.169
AGTTGATC	-0.0303
ATGAACAT	0.112
CTGAAACA	0.193
GTCGTTTA	-0.0115
AACAGACA	0.167
CGACATGA	0.0279
AGAGCGCT	-0.136
ACTGCTAA	0.0628
CCACCTGG	0.105
GGTTCATA	-0.0554
AAGGGTGT	0.0337
ACTGTAAG	-0.0137
TACTTAGA	-0.075

Repeated from above (set 7):
Sequence	E-score
GGGCCCAC	0.16
GACCGGCC	0.136
AACGAGAC	-0.169
AGTTGATC	-0.0303
ATGAACAT	0.112
CTGAAACA	0.193
GTCGTTTA	-0.0115
AACAGACA	0.167
CGACATGA	0.0279
AGAGCGCT	-0.136
ACTGCTAA	0.0628
